Results gathered from unrelated publications.
Lines come from different studies, so protocols differ.
UniProt Q8IVW4, sequence (whole entry, looked up): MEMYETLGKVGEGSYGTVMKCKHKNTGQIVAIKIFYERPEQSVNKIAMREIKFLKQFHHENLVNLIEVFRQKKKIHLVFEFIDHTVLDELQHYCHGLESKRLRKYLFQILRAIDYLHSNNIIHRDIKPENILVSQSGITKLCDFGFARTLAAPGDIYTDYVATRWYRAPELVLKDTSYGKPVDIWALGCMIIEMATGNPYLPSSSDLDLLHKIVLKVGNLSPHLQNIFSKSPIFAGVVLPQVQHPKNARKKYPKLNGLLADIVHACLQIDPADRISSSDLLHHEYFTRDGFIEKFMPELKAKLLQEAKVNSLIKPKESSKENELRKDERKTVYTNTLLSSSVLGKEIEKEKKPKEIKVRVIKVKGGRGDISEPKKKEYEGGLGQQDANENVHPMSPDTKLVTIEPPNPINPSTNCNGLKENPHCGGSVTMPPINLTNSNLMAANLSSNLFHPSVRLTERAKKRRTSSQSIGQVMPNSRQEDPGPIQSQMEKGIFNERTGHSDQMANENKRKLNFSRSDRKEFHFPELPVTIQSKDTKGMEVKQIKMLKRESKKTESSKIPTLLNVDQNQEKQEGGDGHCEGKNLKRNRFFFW
UniProt P50613, sequence (whole entry, looked up): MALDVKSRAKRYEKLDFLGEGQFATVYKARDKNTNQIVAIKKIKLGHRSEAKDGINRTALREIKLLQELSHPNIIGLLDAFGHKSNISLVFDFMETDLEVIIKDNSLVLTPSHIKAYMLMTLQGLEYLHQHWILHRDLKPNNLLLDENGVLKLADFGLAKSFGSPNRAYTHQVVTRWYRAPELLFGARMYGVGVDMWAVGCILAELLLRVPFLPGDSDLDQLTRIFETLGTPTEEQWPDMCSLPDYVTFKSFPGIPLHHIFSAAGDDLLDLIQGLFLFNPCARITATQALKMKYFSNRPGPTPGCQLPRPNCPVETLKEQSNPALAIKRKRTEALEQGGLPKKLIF
UniProt Q16832, sequence (whole entry, looked up): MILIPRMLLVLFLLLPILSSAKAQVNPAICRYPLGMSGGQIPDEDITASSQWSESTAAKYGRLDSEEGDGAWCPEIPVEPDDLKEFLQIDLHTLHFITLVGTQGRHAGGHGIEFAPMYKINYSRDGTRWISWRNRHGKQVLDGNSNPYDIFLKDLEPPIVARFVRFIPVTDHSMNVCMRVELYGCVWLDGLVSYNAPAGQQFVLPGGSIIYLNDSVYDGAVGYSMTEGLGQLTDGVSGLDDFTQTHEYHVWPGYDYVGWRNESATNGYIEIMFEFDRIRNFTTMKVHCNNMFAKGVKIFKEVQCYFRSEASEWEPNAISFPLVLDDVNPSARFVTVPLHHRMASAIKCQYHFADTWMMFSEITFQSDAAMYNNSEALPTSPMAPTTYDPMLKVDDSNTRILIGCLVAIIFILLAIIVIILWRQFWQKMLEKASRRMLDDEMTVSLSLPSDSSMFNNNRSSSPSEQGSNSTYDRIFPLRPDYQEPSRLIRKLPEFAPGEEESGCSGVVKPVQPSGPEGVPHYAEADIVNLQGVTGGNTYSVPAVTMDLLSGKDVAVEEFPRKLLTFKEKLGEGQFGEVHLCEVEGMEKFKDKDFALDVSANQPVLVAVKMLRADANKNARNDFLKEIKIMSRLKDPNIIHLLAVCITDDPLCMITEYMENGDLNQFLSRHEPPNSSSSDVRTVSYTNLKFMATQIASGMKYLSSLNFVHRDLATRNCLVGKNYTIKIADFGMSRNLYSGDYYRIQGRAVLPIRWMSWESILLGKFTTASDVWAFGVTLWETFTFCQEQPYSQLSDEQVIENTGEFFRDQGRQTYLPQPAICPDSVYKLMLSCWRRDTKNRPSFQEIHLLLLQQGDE
UniProt Q5TCY1, sequence (whole entry, looked up): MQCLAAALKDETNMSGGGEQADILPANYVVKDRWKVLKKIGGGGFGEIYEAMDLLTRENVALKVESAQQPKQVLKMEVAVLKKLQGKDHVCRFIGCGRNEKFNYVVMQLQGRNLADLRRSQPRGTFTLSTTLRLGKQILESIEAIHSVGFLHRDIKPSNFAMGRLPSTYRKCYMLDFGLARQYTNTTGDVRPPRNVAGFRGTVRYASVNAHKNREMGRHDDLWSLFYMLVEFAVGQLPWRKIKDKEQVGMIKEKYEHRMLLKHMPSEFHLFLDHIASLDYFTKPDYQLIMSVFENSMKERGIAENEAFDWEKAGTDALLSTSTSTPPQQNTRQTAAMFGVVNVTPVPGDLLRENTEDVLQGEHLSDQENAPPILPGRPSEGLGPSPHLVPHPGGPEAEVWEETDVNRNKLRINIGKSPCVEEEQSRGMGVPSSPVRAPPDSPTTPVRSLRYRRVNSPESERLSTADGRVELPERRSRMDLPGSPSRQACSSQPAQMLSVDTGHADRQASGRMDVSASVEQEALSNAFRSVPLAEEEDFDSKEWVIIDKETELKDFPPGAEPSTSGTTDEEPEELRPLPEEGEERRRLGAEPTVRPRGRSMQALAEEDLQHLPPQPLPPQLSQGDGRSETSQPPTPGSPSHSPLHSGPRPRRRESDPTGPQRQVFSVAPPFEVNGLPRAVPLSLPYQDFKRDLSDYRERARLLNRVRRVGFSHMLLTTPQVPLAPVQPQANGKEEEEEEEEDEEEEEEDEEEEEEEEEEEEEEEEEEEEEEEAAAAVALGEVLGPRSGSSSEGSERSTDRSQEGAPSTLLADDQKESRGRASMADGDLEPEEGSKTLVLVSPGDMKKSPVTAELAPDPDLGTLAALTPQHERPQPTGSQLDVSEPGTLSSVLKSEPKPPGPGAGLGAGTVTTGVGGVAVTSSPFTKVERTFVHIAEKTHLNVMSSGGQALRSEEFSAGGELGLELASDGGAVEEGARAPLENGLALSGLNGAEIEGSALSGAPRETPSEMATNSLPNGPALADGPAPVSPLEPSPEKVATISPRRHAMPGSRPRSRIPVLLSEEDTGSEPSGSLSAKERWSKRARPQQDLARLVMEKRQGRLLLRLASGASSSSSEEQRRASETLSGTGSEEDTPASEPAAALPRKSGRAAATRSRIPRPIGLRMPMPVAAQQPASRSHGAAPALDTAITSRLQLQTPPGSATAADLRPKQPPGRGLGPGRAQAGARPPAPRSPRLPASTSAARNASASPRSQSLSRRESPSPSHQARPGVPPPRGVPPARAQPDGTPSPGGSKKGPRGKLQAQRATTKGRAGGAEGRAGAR
UniProt P68400, sequence (whole entry, looked up): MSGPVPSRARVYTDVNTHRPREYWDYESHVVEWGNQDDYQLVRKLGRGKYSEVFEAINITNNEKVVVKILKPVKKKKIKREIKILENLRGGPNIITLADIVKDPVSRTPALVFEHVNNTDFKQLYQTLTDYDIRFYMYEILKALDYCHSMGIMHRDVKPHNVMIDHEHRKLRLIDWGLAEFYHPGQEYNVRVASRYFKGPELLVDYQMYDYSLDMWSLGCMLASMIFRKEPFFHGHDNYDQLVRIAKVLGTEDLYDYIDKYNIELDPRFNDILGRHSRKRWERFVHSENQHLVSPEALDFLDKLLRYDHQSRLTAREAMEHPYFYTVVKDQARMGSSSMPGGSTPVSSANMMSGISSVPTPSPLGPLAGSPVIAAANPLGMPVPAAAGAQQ

With `NCCC(=O)Nc1ccccc1/N=c1\cc(-c2ccc3oc(N)nc3c2)oc2ccccc12` the inhibition was 21.2% (MOLM-13; cell growth or viability, CCK-8; 1 µM).
The viability of `CNC(=O)c1cc(Oc2ccc(NC(=O)Nc3ccc(Cl)c(C(F)(F)F)c3)cc2)ccn1` is reported as 72.8% (HCT-116; cell growth or viability, SRB; 0.1 µM, 48 h).
The IC50 of `O=C(Nc1ccc(-c2ccc3ncn(Cc4ccccc4)c(=O)c3c2)cn1)C1CC1` is reported as > 10 µM (NCI-H1975; cell growth or viability, CCK-8; 72 h).
`CC(=NNC(=O)c1ccc(N)cc1)c1ccc(Nc2nnc(-c3ccc(Cl)cc3)c3ccccc23)cc1` has a cell death of 8.51% (HepG2; cell growth or viability, MTT; 0.625 µM).
With `NC(=S)NN=C(CS(=O)(=O)c1ccccc1)c1ccc(F)cc1` the viability was 77.3% (SK-MEL-23; cell growth or viability, MTT; 0.4 µM, 48 h).
For `CCCCC(=O)Nc1ccc(-c2ccc3ncn(CCC)c(=O)c3c2)c(F)n1`, the IC50 was 0.26 µM (NCI-H1975; cell growth or viability, CCK-8; 72 h).
The EC50 of `COC(=O)c1cccc(-c2cccc(Nc3nccc(NC4CCCCC4)n3)c2)c1` is reported as 21.5 µM (BJ; cell growth or viability, ATP luminescence; 72 h).
`Cc1nc(Nc2ncc(C(=O)Nc3c(C)cccc3Cl)s2)cc(N2CC[C@H](O)C2)n1` has an inhibition of 17% (L-82; cell growth or viability, ATP luminescence; 10 µM, 72 h).
For `COc1ccc(NC(=O)c2c(Nc3ccccc3)sc(C(=O)NN=Cc3ccc(C)cc3)c2NC(C)=O)cc1`, the viability was 76.3% (HCT-116; cell growth or viability, SRB; 10 µM, 48 h).
`O=C1O[C@H]([C@@H](O)CO)C(O)=C1O` gave an inhibition of 57% (DPPH scavenging, absorbance; 90 µg/mL).
With `c1cc(Nc2nccc(NC3CCCCC3)n2)cc(C2CC2)c1` the EC50 was 12.2 µM (BJ; cell growth or viability, ATP luminescence; 72 h).
`COc1ccc(NC(=O)c2c(Nc3ccccc3)sc(C#N)c2NC(=O)CNc2ccc(Br)cc2)cc1` gave a viability of 45.4% (HCT-116; cell growth or viability, SRB; 100 µM, 48 h).
`NC(=O)C1CCCN1C(=O)Nc1ccccc1/N=c1\cc(-c2ccc3c(c2)OCCO3)oc2cc(F)ccc12` (stereo not shown) gave an inhibition of 3.15% (NCI-H1975; cell growth or viability, CCK-8; 1 µM).
`c1cc(Nc2nccc(NC3CCCCC3)n2)cc(N2CCOCC2)c1` has an EC50 of > 14 µM (BJ; cell growth or viability, ATP luminescence; 72 h).
The inhibition of `CS(=O)(=O)NCCC(=O)Nc1ccccc1/N=c1\cc(-c2ccc3nc(N)oc3c2)oc2ccccc12` is reported as -3.35% (NCI-H1975; cell growth or viability, CCK-8; 1 µM).
With `Cc1n[nH]c2ccc3nc(-c4ccc(C(=O)N(C)CCN(C)C)nc4)c4c(c3c12)CCCCC4` the GI50 was > 10 µM (K562; cell growth or viability, resazurin; 72 h).
For `COc1ccc(NC(=O)c2c(Nc3ccccc3)sc(C(=O)NN=Cc3ccc(Br)cc3)c2NC(C)=O)cc1`, the viability was 101% (HepG2; cell growth or viability, SRB; 1 nM, 48 h).
For `c1cncc(-c2cccc(Nc3nccc(NC4CCC4)n3)c2)c1`, the EC50 was > 17 µM (BJ; cell growth or viability, ATP luminescence; 72 h).
`COc1ccc(NC(=O)c2c(Nc3ccccc3)sc(C(=O)NN=Cc3cc(OC)c(OC)c(OC)c3)c2NC(C)=O)cc1` has a viability of 58.2% (HepG2; cell growth or viability, SRB; 1 µM, 48 h).
With `O=C(C=Cc1ccccc1)Nc1ccc(Oc2nnc(-c3ccc(Cl)cc3)c3ccccc23)cc1` the cell death was 21.5% (HepG2; cell growth or viability, MTT; 0.625 µM).
`COc1ccc(NCC(=O)Nc2c(C#N)sc(Nc3ccccc3)c2C(=O)Nc2ccc(OC)cc2)cc1` gave a viability of 74.2% (HCT-116; cell growth or viability, SRB; 0.1 µM, 48 h).
`O=C(Nc1ccccc1/N=c1\cc(-c2ccc3c(c2)OCO3)oc2ccccc12)N1CCNCC1` has an inhibition of -5.27% (NCI-H1975; cell growth or viability, CCK-8; 1 µM).
The remaining binding of `Cc1cc([C@@H](C)Nc2ccccc2C(=O)O)c2nc(N3CCC(F)(F)CC3)c(C#N)c(=O)n2c1` is reported as 90% (Cyclin-dependent kinase 7 (CDK7, Homo sapiens, UniProt P50613); binding, competition with immobilised ligand; 10 µM).
`COc1cc(-c2cncc3c2CN(C)Cc2cc(N4CCNCC4)ccc2-3)cc(OC)c1OC` has a remaining activity of 113% (Cyclin-dependent kinase-like 3 (CDKL3, Homo sapiens, UniProt Q8IVW4); enzyme activity, inhibitor; 1 µM).
`CC(=NNC(N)=S)c1ccc(Nc2nnc(-c3ccc(Cl)cc3)c3ccccc23)cc1` has a cell death of 4.45% (HepG2; cell growth or viability, MTT; 78 nM).
For `COc1ccc(Cn2cnc3ccc(-c4ccc(NC(=O)c5ccccc5)nc4)cc3c2=O)cc1`, the IC50 was > 10 µM (NCI-H1975; cell growth or viability, CCK-8; 72 h).
With `CN(C)CCNC(=O)c1ccc(-c2nc3ccc4[nH]ncc4c3c3c2CCCCC3)nc1` the GI50 was 8.1 µM (K562; cell growth or viability, resazurin; 72 h).
With `C1=C/COCc2cc(ccc2OCCN2CCCC2)Nc2nccc(n2)-c2cccc(c2)COC/1` the remaining binding was 56% (Casein kinase II subunit alpha (CSNK2A1, Homo sapiens, UniProt P68400); binding; 0.1 µM).
The IC50 of `CCCn1cnc2ccc(-c3ccc(N4CCCC4=O)nc3)cc2c1=O` is reported as > 10 µM (NCI-H1975; cell growth or viability, CCK-8; 72 h).
`Cc1cccc(N(O)N=Nc2ccc(S(=O)(=O)Nc3nccs3)cc2)c1` has an inhibition of 30.5% (DPPH scavenging, absorbance; 120 µg/mL).
For `S=C(Nc1ccccc1)Nc1ccc(Oc2nnc(-c3ccc(Cl)cc3)c3ccccc23)cc1`, the cell death was 3.16% (HepG2; cell growth or viability, MTT; 0.625 µM).
With `Cc1cc(C)n(C(=S)[S][Au][PH](CCCCCC[PH]([Au][S]C(=S)n2nc(C)cc2C)(c2ccccc2)c2ccccc2)(c2ccccc2)c2ccccc2)n1` the GI50 was 0.105 µM (COLO 205; cell growth or viability).
The IC50 of `C#CCn1cnc2ccc(-c3ccc(NC(=O)CCCC)nc3)cc2c1=O` is reported as > 10 µM (NCI-H1975; cell growth or viability, CCK-8; 72 h).
`CC(=NNC(=O)c1ccccc1Br)c1ccc(Nc2nnc(-c3ccc(Cl)cc3)c3ccccc23)cc1` has a cell death of 88.1% (HepG2; cell growth or viability, MTT; 1.25 µM).
With `c1cncc(-c2cccc(Nc3nccc(OC4CCCCC4)n3)c2)c1` the EC50 was > 6 µM (BJ; cell growth or viability, ATP luminescence; 72 h).
`CC(=NNC(=O)c1ccccc1Cl)c1ccc(Nc2nnc(-c3ccc(Cl)cc3)c3ccccc23)cc1` gave a cell death of 94.5% (HepG2; cell growth or viability, MTT; 1.25 µM).
`C=CC(=O)N1CCC(COCC(=O)N2CCN(c3nc(-c4cnc(N)nc4C(F)F)nc(N4CCOC[C@@H]4C)n3)CC2)CC1` gave a remaining binding of 100% (Discoidin domain-containing receptor 2 (DDR2, Homo sapiens, UniProt Q16832); binding, competition with immobilised ligand; 1 µM).
For `CCNc1nc2ccc(-c3c/c(=N\c4ccccc4NC(=O)CCN)c4ccccc4o3)cc2o1`, the inhibition was 23% (NCI-H1975; cell growth or viability, CCK-8; 1 µM).
For `CN(c1cccc(-c2cccnc2)c1)c1nccc(NC2CCCCC2)n1`, the EC50 was > 4 µM (BJ; cell growth or viability, ATP luminescence; 72 h).
`CNc1ncc2c(/C=C/C(=O)N3CCC(OC)CC3)nn(Cc3cccc(C(F)(F)F)c3)c2n1` has a remaining activity of 103% (Tau-tubulin kinase 1 (TTBK1, Homo sapiens, UniProt Q5TCY1); enzyme activity, inhibitor, radiometric; 1 µM).
The GI50 of `Cc1n[nH]c2ccc3nc(-c4ccc(C(=O)NCCN(C)C)cc4)c4c(c3c12)CCCC4` is reported as 0.86 µM (U-937; cell growth or viability; 72 h).
With `CCCNc1ccnc(Nc2cccc(-c3cccnc3)c2)n1` the EC50 was > 19 µM (BJ; cell growth or viability, ATP luminescence; 72 h).
The viability of `COc1ccc(NC(=O)c2c(Nc3ccccc3)sc(C#N)c2NC(=O)CNc2ccccc2Cl)cc1` is reported as 99.2% (HCT-116; cell growth or viability, SRB; 1 nM, 48 h).
`O=C(Nc1ccccc1/N=c1\cc(-c2ccc3c(c2)OCCO3)oc2cc(F)ccc12)N1CCOCC1` gave an inhibition of 14.3% (HCT-116; cell growth or viability, CCK-8; 1 µM).
For `CCCC(=O)Nc1ccc(-c2ccc3ncn(Cc4ccc(C)cc4)c(=O)c3c2)cn1`, the IC50 was 8.77 µM (NCI-H1975; cell growth or viability, CCK-8; 72 h).
`NCC(=O)Nc1ccccc1/N=c1\cc(-c2ccc3c(c2)OCO3)oc2c([N+](=O)[O-])cccc12` has an inhibition of 3.85% (MOLM-13; cell growth or viability, CCK-8; 1 µM).
`CCCCC(=O)Nc1cc(C)c(-c2ccc3ncn(CCC)c(=O)c3c2)cn1` has an IC50 of 6.79 µM (NCI-H1975; cell growth or viability, CCK-8; 72 h).
`c1ccc(N2CCCC(Nc3nccc(NC4CCCCC4)n3)C2)cc1` (stereo not shown) has an EC50 of > 11 µM (BJ; cell growth or viability, ATP luminescence; 72 h).
`O=C(Nc1ccc(Oc2nnc(-c3ccc(Cl)cc3)c3ccccc23)cc1)c1ccccc1` has a cell death of 77.6% (MCF7; cell growth or viability, MTT; 0.156 µM).
With `COc1ccc2/c(=N/c3ccccc3NC(=O)[C@@H](N)C(C)(C)C)cc(-c3ccc4c(c3)OCO4)oc2c1` the inhibition was 7.26% (HCT-116; cell growth or viability, CCK-8; 1 µM).
`CNCc1cc(OC)cc2c1CN(c1cccc(-c3nncn3C(C)CC(F)(F)F)n1)C2=O` (stereo not shown) gave an IC50 of 1.23 µM (HCC827; cell growth or viability, CCK-8).
With `CCC(=CCc1c(O)cc2c(c1O)C(=O)C[C@@H](c1ccc(O)cc1)O2)CC` the inhibition was 89.1% (HeLa; cell growth or viability, MTT; 50 µM, 48 h).
The cell death of `O=C(Nc1ccccc1)Nc1ccc(Oc2nnc(-c3ccc(Cl)cc3)c3ccccc23)cc1` is reported as 94% (HepG2; cell growth or viability, MTT; 1.25 µM).
For `COc1ccc(NC(=O)c2c(Nc3ccccc3)sc(C#N)c2NC(=O)CNc2ccc(OC)c(OC)c2)cc1`, the viability was 87.3% (HCT-116; cell growth or viability, SRB; 10 nM, 48 h).
For `CC(C)(C)c1cc(NC(=O)Nc2ccc(-c3cn4c(n3)sc3cc(OCCN5CCOCC5)ccc34)cc2)no1`, the GI50 was > 10 µM (U-937; cell growth or viability; 72 h).
